Results collected from several papers.
± marks the error that the study gave.

The triglyceride level of `CC[C@H](C)[C@H](NC(=O)[C@H](CC(N)=O)NC(=O)[C@H](CC(N)=O)NC(=O)[C@H](CCCNC(=N)N)NC(=O)[C@H](CC(N)=O)NC(=O)[C@H](CCCNC(=N)N)NC(=O)[C@H](CCCCN)NC(=O)[C@@H](NC(=O)[C@H](CC(N)=O)NC(=O)[C@H](CCSC)NC(=O)[C@H](CC(C)C)NC(=O)[C@H](Cc1c[nH]c2ccccc12)NC(=O)[C@H](CCC(N)=O)NC(=O)[C@@H](NC(=O)[C@H](Cc1ccccc1)NC(=O)[C@H](CC(=O)O)NC(=O)[C@H](CCC(N)=O)NC(=O)[C@H](C)NC(=O)[C@H](CCCNC(=N)N)NC(=O)[C@H](CCCNC(=N)N)NC(=O)[C@H](CO)NC(=O)[C@H](CC(=O)O)NC(=O)[C@H](CC(C)C)NC(=O)[C@H](Cc1ccc(O)cc1)NC(=O)[C@H](CCCCN)NC(=O)[C@H](CO)NC(=O)[C@H](Cc1ccc(O)cc1)NC(=O)[C@H](CC(=O)O)NC(=O)[C@H](CO)NC(=O)[C@@H](NC(=O)[C@H](Cc1ccccc1)NC(=O)[C@@H](NC(=O)CNC(=O)[C@H](CCC(=O)O)NC(=O)[C@@H](CO)NC(=O)[C@@H](N)Cc1c[nH]cn1)[C@@H](C)O)[C@@H](C)O)C(C)C)[C@@H](C)O)C(=O)N[C@@H](C)C(=O)N[C@@H](CSCC(=O)NCCOCCOCCOCCOCCC(=O)O[C@H]1CC[C@@]2(C)C(=CC[C@H]3[C@@H]4CC[C@H]([C@H](C)CCCC(C)C)[C@@]4(C)CC[C@@H]32)C1)C(N)=O` is reported as 47 ± 6 mg/dL (diet-induced obese mice, plasma; subcutaneous, 1.9 µmol/kg, 14 days, chronic dosing).
The relative potency of `CCCC[C@H](NC(=O)[C@@H](NC(=O)[C@H](CC(=O)O)NC(=O)[C@H](CCC(N)=O)NC(=O)[C@H](CC(C)C)NC(=O)[C@H](CC(C)C)NC(=O)[C@H](CCCN)NC(=O)[C@H](CCCNC(=N)N)NC(=O)[C@H](C)NC(=O)[C@H](CO)NC(=O)[C@H](CC(C)C)NC(=O)[C@H](CCC(N)=O)NC(=O)[C@H](CC)NC(=O)[C@H](CC(C)C)NC(=O)[C@@H](NC(=O)[C@H](CCCN)NC(=O)[C@H](CCCNC(=N)N)NC(=O)[C@H](Cc1ccc(O)cc1)NC(=O)[C@H](CO)NC(=O)[C@H](CCC(N)=O)NC(=O)[C@@H](NC(=O)[C@H](Cc1ccccc1)NC(=O)[C@@H](NC(=O)[C@H](C)NC(=O)[C@H](CC(=O)O)NC(=O)[C@H](C)NC(=O)CCc1ccc(O)cc1)[C@@H](C)CC)[C@@H](C)O)C(C)C)[C@@H](C)CC)C(=O)N[C@@H](CC(=O)O)C(=O)NCCCCNC(=N)N` is reported as 112 (GH release; male rat, serum; subcutaneous, dose not given, 30 min; baseline: GHRH(1-29)NH2).
`CC[C@H](C)[C@H](NC(C)=O)C(=O)N[C@H]1CSCC[C@@H](C(=O)N(C)[C@H](C(N)=O)[C@@H](C)CC)NC(=O)[C@H](CCCNC(=N)N)NC(=O)[C@H](Cc2c[nH]cn2)NC(=O)[C@H](C)NC(=O)CN(C)C(=O)[C@H](Cc2c[nH]c3ccccc23)NC(=O)[C@H](CC(=O)O)NC(=O)[C@H](CCC(N)=O)NC(=O)[C@H](Cc2cn(C)c3ccccc23)NC(=O)[C@H](C(C)C)NC1=O` gave an IC50 ratio of 4 to 6 fold (classical complement activation, ELISA C3b deposition; normal human plasma; sulfoxide oxidized; baseline: untreated peptide).
`CCC1CC2C(C)=CC3C(=O)CCCC3C=CC(C)=CC2C(=O)O1` (stereo not shown) — result for “PSD95 level increase”: 7.6% (western blot; PS19 mouse (MAPT P301S), hippocampus; oral, 30 mg/kg, 3 weeks; baseline: vehicle).
The HbA1c of `C[C@H](CC(=O)C[C@@H](C)[C@H]1C[C@H](O)[C@@]2(C)C3=C(C(=O)C[C@]12C)[C@@]1(C)CCC(=O)C(C)(C)[C@@H]1C[C@@H]3O)C(=O)O` is reported as 1.73 ± 0.18% (mouse, STZ-induced type 1 diabetes, blood; 20 mg/kg).
`NS(=O)(=O)NCC(F)(F)c1ccccc1F` has an ED50 of 108 ± 2 mg/kg (protection from scPTZ seizures; mouse; added: pentylenetetrazol 85 mg/kg s.c.).
`C=C(c1ccc(C(=O)O)c(F)c1)c1cc2c(cc1C)C(C)(C)C=CC2(C)C` — result for “log2 fold change”: -0.4 (RNA sequencing, item: Mpeg1; rat, brain; dose not given, 24 h; baseline: vehicle).
The relative potency of `CCCC[C@H](NC(=O)[C@@H](NC(=O)[C@H](CC(=O)O)NC(=O)[C@H](CCC(N)=O)NC(=O)[C@H](CC(C)C)NC(=O)[C@H](CC(C)C)NC(=O)[C@H](CCCN)NC(=O)[C@H](CCCNC(=N)N)NC(=O)[C@H](C)NC(=O)[C@H](CO)NC(=O)[C@H](CC(C)C)NC(=O)[C@H](CCC(N)=O)NC(=O)[C@H](CC)NC(=O)[C@H](CC(C)C)NC(=O)[C@@H](NC(=O)[C@H](CCCN)NC(=O)[C@H](CCCNC(=N)N)NC(=O)[C@H](Cc1ccc(O)cc1)NC(=O)[C@H](CO)NC(=O)[C@H](CCC(N)=O)NC(=O)[C@@H](NC(=O)[C@H](Cc1ccccc1)NC(=O)[C@@H](NC(=O)[C@H](C)NC(=O)[C@H](CC(=O)O)NC(=O)[C@H](C)NC(=O)[C@H](Cc1ccc(O)cc1)NC)[C@@H](C)CC)[C@@H](C)O)C(C)C)[C@@H](C)CC)C(=O)N[C@@H](CC(=O)O)C(=O)NCCCCNC(=N)N` is reported as 151 (GH release; male rat, serum; subcutaneous, dose not given, 30 min; baseline: GHRH(1-29)NH2).
`COc1ccc2c(c1)c(CC(=O)OCC(=O)OC(C)(C)C)c(C)n2C(=O)c1ccc(Cl)cc1`: “latency of nociceptive response” 16 ± 1.02 s (hot plate test; BALB/c mice; 100 mg/kg, 30 min).
`C[C@H](N)C(=O)N1CCC[C@H]1C(=O)NCC(=O)NCC(=O)O` gave an activation energy of 19.6 ± 0.956 kcal/mol (diketopiperazine formation, Arrhenius plot, ESI-MS; 1-propanol; 70, 80, 90 °C, 0.5% acetic acid).

A few entries again:
The relative potency of `CCCC[C@H](NC(=O)[C@@H](NC(=O)[C@H](CC(=O)O)NC(=O)[C@H](CCC(N)=O)NC(=O)[C@H](CC(C)C)NC(=O)[C@H](CC(C)C)NC(=O)[C@H](CCCN)NC(=O)[C@H](CCCNC(=N)N)NC(=O)[C@H](C)NC(=O)[C@H](CO)NC(=O)[C@H](CC(C)C)NC(=O)[C@H](CCC(N)=O)NC(=O)[C@H](CC)NC(=O)[C@H](CC(C)C)NC(=O)[C@@H](NC(=O)[C@H](CCCN)NC(=O)[C@H](CCCNC(=N)N)NC(=O)[C@H](Cc1ccc(O)cc1)NC(=O)[C@H](CO)NC(=O)[C@H](CCC(N)=O)NC(=O)[C@@H](NC(=O)[C@H](Cc1ccccc1)NC(=O)[C@@H](NC(=O)[C@H](C)NC(=O)[C@H](CC(=O)O)NC(=O)[C@H](C)NC(=O)CCc1ccc(O)cc1)[C@@H](C)CC)[C@@H](C)O)C(C)C)[C@@H](C)CC)C(=O)N[C@@H](CC(=O)O)C(=O)NCCCCNC(=N)N` is reported as 112 (GH release; male rat, serum; subcutaneous, dose not given, 30 min; baseline: GHRH(1-29)NH2).
